Measurements from different studies.
Each line is one published result; not all experiments were run side by side. Numbers after ± are the reported error.

Structure (SMILES) = O=C1Nc2ccc(Br)cc2/C1=C/c1cc2c([nH]1)CCCC2; tested on = HeLa expressing Ub(G76V)-GFP; test = Ub(G76V)-GFP degradation, cycloheximide chase; setting = 12 µM; quantity = inhibition; result = 100%
Structure (SMILES) = CC(C(=O)Nc1cccc(/N=C/c2c(O)ccc3ccccc23)c1)c1ccccc1 (centres unmarked); tested on = HBL-1; setting = 1 µM, 120 h; quantity = viability; result = 94.7%
Structure (SMILES) = CCN(CC)c1nc(N)c2c(N)nc3c(c2c1C#N)C(=O)CN3Cc1ccccc1; tested on = Plasmodium yoelii; test system = 17XL; setting = 384-well; quantity = IC50; result = 257 nM
Structure (SMILES) = CCn1cc(-c2cc(Cn3ccnc3)cc3c2CCN([C@H](c2cc(OC)ccn2)C2CC2)C3=O)c(C(F)(F)F)n1; tested on = HCC95; test = cell growth, inhibitor; setting = 120 h; quantity = EC50; result = > 30000 nM
Structure (SMILES) = Cc1ccccc1Cn1cc(-c2cccc(NC(=O)Nc3ccc(F)cc3)c2)nn1; tested on = Huh-7; test = annexin V/PI flow cytometry; setting = 5 µM, 72 h; quantity = apoptotic cells; result = no effect
Structure (SMILES) = CCOc1nc(-c2cccc(O)c2)cc(-c2cc3cc(Cl)ccc3nc2N2CCOCC2)c1C#N; tested on = WI-38; test = cell viability, MTT; setting = 72 h; quantity = EC50; result = 29 ± 2 nM
Structure (SMILES) = COc1ccc(OC)c(-c2nc3ccc(-c4nc5ccc(N6CCN(C)CC6)cc5[nH]4)cc3[nH]2)c1; tested on = Hs-578T; test = SRB; setting = 10 µM, 48 h; quantity = growth percent; result = 85.5%
Structure (SMILES) = CC(NC(=O)c1ccccc1/N=C/c1c(O)ccc2ccccc12)c1ccccc1 (centres unmarked); tested on = HBL-1; setting = 0.1 µM, 120 h; quantity = viability; result = 124%
Structure (SMILES) = CC(C)(c1ccc(O)cc1)c1ccc(O)cc1; tested on = HepG2 spheroids; test = Hoechst flow cytometry; setting = 1 µM, 96 h; quantity = G2 phase cells; result = 15 ± 6.49%
Structure (SMILES) = CCc1cnc(N2CCC(c3nc(COc4ccc(-n5cnnn5)cc4)cs3)CC2)nc1; tested on = HEK-293T; test = RNA-seq GSEA, refers to: Hallmark apical junction; setting = concentration not given; scale = direction not given; quantity = normalized enrichment score; result = -1.3
Structure (SMILES) = O=C(NO)c1ccc(Cn2cnc3c(Nc4cccc([N+](=O)[O-])c4)ncnc32)cc1; tested on = NB4-R2 venetoclax-resistant cells; test = cell viability, MTT; setting = 48 h, with: venetoclax; quantity = sensitizing concentration; result = 1.25 µM
Structure (SMILES) = CCOC(=O)Nc1cc(-c2ccc(C)c(NS(C)(=O)=O)c2)nn2c(C)nnc12; tested on = HBL-1; setting = 0.1 µM, 120 h; quantity = viability; result = 70.5%
Structure (SMILES) = C=CC1=C(C)c2cc3[n-]c(cc4nc(cc5[n-]c(cc1n2)c(C)c5C=C)C(C)=C4CCC(=O)O)c(CCC(=O)O)c3C.[Zn+2]; tested on = SH-SY5Y; test = RNA-seq, refers to: PLK2 mRNA; setting = 5 µM, 5 h; scale = relative to: untreated cells; quantity = fold change; result = 1.56
Structure (SMILES) = CCCc1cc(C)[nH]c(=O)c1CNC(=O)c1cc(-c2ccnc(N3CCN(C)CC3)c2)cc2c1cnn2C(C)C; tested on = HBL-1; setting = 0.5 µM, 120 h; quantity = viability; result = 129%
Structure (SMILES) = Clc1nc(NCc2ccco2)c2[nH]cnc2n1; tested on = FD iPSC-derived cardiomyocytes; test = alternative splicing, RNA-seq, refers to: CD200 exon chr3:112340901-112340983; setting = unit not given; scale = relative to: DMSO minus compound; quantity = ΔPSI; result = 0.211
Structure (SMILES) = CC[C@@]1(O)C(=O)OCc2c1cc1n(c2=O)Cc2cc3c(CN(C)C)c(O)ccc3nc2-1; tested on = BT-12; test = cell viability, MTT; setting = 10 µM, 72 h; quantity = inhibition; result = 93.5%
Structure (SMILES) = Cc1[nH]c(C)c(-c2ccc(OCCOc3ccc(C(F)(F)F)cn3)cc2)c(=O)c1Br; tested on = Plasmodium yoelii; test system = 17XL; setting = 384-well; quantity = IC50; result = 101 ± 25 nM
Structure (SMILES) = CCCCC(CC)CNC(=N)NC(=N)NCCCCCCNC(=N)NC(=N)NCC(CC)CCCC.Cl.Cl (centres unmarked); tested on = BT-12; test = cell viability, MTT; setting = 10 µM, 72 h; quantity = inhibition; result = 95.2%
Structure (SMILES) = CNc1ncnc2c1c(-c1ccc3cc(OC4CC4)ccc3c1)nn2CC(C)(C)O; tested on = LNCaP; test = radiometric; setting = 20 µM, 3 h, with: [3H]3-O-methylglucose; quantity = 3-O-methylglucose uptake; result = no inhibition
Structure (SMILES) = Cn1cc(-c2ccc(-c3cncc(Cl)c3N3CCC4(CCNC4=O)CC3)cc2)cn1; tested on = COLO 205; test = microarray, refers to: SDC4; setting = concentration not given, 6 h, gene set Syndecan-4; scale = relative to: untreated cells; quantity = fold change in expression; result = 2.9
Structure (SMILES) = COc1cc2nc(N3CCCN(C)CC3)nc(NC3CCN(Cc4ccccc4)CC3)c2cc1OC; tested on = HBL-1; setting = 0.5 µM, 120 h; quantity = viability; result = 117%
Structure (SMILES) = C[C@@H](N)[C@H]1CC[C@H](C(=O)Nc2ccncc2)CC1; tested on = HeLa expressing Ub(G76V)-GFP; test = Ub(G76V)-GFP degradation, cycloheximide chase; setting = 12 µM; quantity = inhibition; result = 24%
Structure (SMILES) = O=c1ncccn1[C@@H]1O[C@H](CO)[C@@H](O)[C@H]1O; tested on = HBL-1; setting = 0.1 µM, 120 h; quantity = viability; result = 122%
Structure (SMILES) = Cc1ccccc1-c1ccc([C@H]2[C@H](CO)N3C(=O)CN(C(=O)c4ccncc4)C[C@@H]23)cc1; tested on = IDE (Homo sapiens, UniProt P14735); test = enzyme activity, inhibitor, fluorogenic kinetic; setting = with: Mca-RPPGFSAFK(Dnp)-OH substrate; quantity = EC50; result = 4500 nM
Structure (SMILES) = c1ccc2c(Cc3c[nH]c4ccccc34)c[nH]c2c1; tested on = HBL-1; setting = 0.5 µM, 120 h; quantity = viability; result = 130%
Structure (SMILES) = COc1ccc(Cl)cc1NC(=O)Nc1cc(C)nc2ccccc12; tested on = HeLa expressing Ub(G76V)-GFP; test = Ub(G76V)-GFP degradation, inhibitor, cycloheximide chase; setting = 12 µM; quantity = inhibition; result = 53%

Some of these lines once more:
Structure (SMILES) = c1ccc2c(Cc3c[nH]c4ccccc34)c[nH]c2c1; tested on = HBL-1; setting = 0.5 µM, 120 h; quantity = viability; result = 130%
Structure (SMILES) = CCOc1nc(-c2cccc(O)c2)cc(-c2cc3cc(Cl)ccc3nc2N2CCOCC2)c1C#N; tested on = WI-38; test = cell viability, MTT; setting = 72 h; quantity = EC50; result = 29 ± 2 nM
Structure (SMILES) = O=C(NO)c1ccc(Cn2cnc3c(Nc4cccc([N+](=O)[O-])c4)ncnc32)cc1; tested on = NB4-R2 venetoclax-resistant cells; test = cell viability, MTT; setting = 48 h, with: venetoclax; quantity = sensitizing concentration; result = 1.25 µM
Structure (SMILES) = C[C@@H](N)[C@H]1CC[C@H](C(=O)Nc2ccncc2)CC1; tested on = HeLa expressing Ub(G76V)-GFP; test = Ub(G76V)-GFP degradation, cycloheximide chase; setting = 12 µM; quantity = inhibition; result = 24%
